Results collected from several papers.
Compare with care: the assays were run in different laboratories. Numbers after ± are the reported error. Converted amounts (≈) assume the structure as drawn.

| Structure (SMILES) | target or system | test | test system | setting | how to read | quantity | value |
| --- | --- | --- | --- | --- | --- | --- | --- |
| O=C(N/N=C1\C(=O)Nc2ccc([N+](=O)[O-])cc21)N/N=C1\C(=O)Nc2ccc([N+](=O)[O-])cc21 | Influenza A virus H3N2 | viral replication, visual CPE score | MDCK | – | – | EC50 | 72 ± 27 µM |
| CCC(CC)O[C@@H]1C=C(C(=O)O)C[C@H](N)[C@H]1NC(C)=O | Influenza A virus | viral cytopathic effect, MTS | MDCK, H1N1 | – | – | EC50 | 4.3 µM |
| CC(=O)N[C@H]1[C@H]([C@H](O)[C@H](O)CO)OC(SCCOCCOCCOCCSC2(C(=O)O)C[C@H](NC(=N)N)[C@@H](NC(C)=O)[C@H]([C@H](O)[C@H](O)CO)O2)(C(=O)O)C[C@@H]1NC(=N)N (stereo partly shown) | Influenza A virus | – | H1N1 A/California/07/2009 | – | – | IC50 | 0.01 to 1 µM |
| Cc1[nH]c(=O)c(CNC(=O)c2ccc(C(F)(F)F)o2)c2c1CCCC2 | Mycobacterium tuberculosis | microbial growth, resazurin | H37RV | – | – | MIC | 2 µg/mL (≈ 5.64 µM) |
| CN[C@@](C)(C[18F])C(=O)O | – | – | SCID mouse U87 xenograft, muscle | 30 min, post injection | – | tissue uptake | 1.8 ± 0.3 %ID/g |
| Cc1ccc(C(=O)NCc2c3c(c(C)[nH]c2=O)CCCC3)cn1 | Mycobacterium tuberculosis | microbial growth, resazurin | H37RV | – | – | MIC | 1.3 µg/mL (≈ 4.17 µM) |
| O=C1/C(=N\NC(=S)NN=Cc2ccccc2)c2ccccc2N1Cc1ccccc1 | Influenza A virus H3N2 | viral replication, MTS | MDCK | – | – | EC50 | > 100 µM |
| COc1cc(C)cc(-c2ccc(C(=O)NCc3c4c(c(C)[nH]c3=O)CCCC4)cc2)c1 | Mycobacterium tuberculosis | microbial growth, resazurin | H37RV | 25 µg/mL | – | inhibition | 93.7% |
| CC(=O)N[C@H]1[C@H]([C@H](O)[C@H](O)CO)OC(C(=O)O)=C[C@@H]1N=C(N)N | Streptococcus pneumoniae | biofilm formation | – | – | no inhibition up to value | MBIC90 | > 50 µM |
| O=C1Nc2ccccc2/C1=N/NC(=S)N/N=C1\C(=O)Nc2ccccc21 | Influenza A virus H3N2 | viral replication, visual CPE score | MDCK | – | – | EC50 | 72 ± 27 µM |
| NC(=O)c1ncn([C@@H]2O[C@H](CO)[C@@H](O)[C@H]2O)n1 | unidentified influenza virus | viral replication, inhibitor | MDCK, H1N1 PR/8 | 24 h | – | IC50 | 10.5 µM |
| Cc1ccc(C(=O)NCc2c(C)c3c([nH]c2=O)CCCC3)cn1 | Mycobacterium tuberculosis | microbial growth, resazurin | H37RV | – | – | MIC | > 50 µg/mL |
| CC(=O)N[C@H]1[C@H]([C@H](O)[C@H](O)CO)OC(SCCOCCOCCOCCOCCOCCSC2(C(=O)O)C[C@H](NC(N)=O)[C@@H](NC(C)=O)[C@H]([C@H](O)[C@H](O)CO)O2)(C(=O)O)C[C@@H]1NC(=N)N (stereo partly shown) | Influenza A virus | plaque formation | H1N1 | 30 min | – | IC50 | 1 µM |
| NC(=O)c1ncn([C@@H]2O[C@H](CO)[C@@H](O)[C@H]2O)n1 | unidentified influenza virus | viral replication | MDCK, H1N1 | 48 h | – | IC50 | 39 µM |
| Cc1ccc2c(c1)/C(=N/NC(=O)N/N=C1\C(=O)Nc3ccc(C)cc31)C(=O)N2 | Influenza A virus H3N2 | viral replication, visual CPE score | MDCK | – | – | EC50 | > 20 µM |
| CC[C@H](C)[C@@H]1NC(=O)[C@H](CCC(=O)O)NC(=O)[C@H](C)NC(=O)[C@H](C)NC(=O)[C@H]([C@@H](C)O)NC(=O)[C@H](CCC(N)=O)NC(=O)[C@@H]2CSSC[C@H](NC(=O)[C@H](CC(N)=O)NC(=O)CNC(=O)[C@H](CC(N)=O)NC(=O)[C@H](CC(=O)O)NC(=O)[C@H](C(C)C)NC(=O)[C@H](CCSC)NC(=O)[C@H]([C@@H](C)CC)NC(=O)[C@H](CCCCN)NC(=O)[C@H](C(C)C)NC(=O)[C@H]([C@@H](C)O)NC(=O)[C@H](Cc3ccc(O)cc3)NC(=O)CNC(=O)[C@H](Cc3ccccc3)NC(=O)[C@H](C)NC(=O)[C@H](CCCNC(=N)N)NC(=O)[C@H](Cc3c[nH]c4ccccc34)NC1=O)C(=O)N[C@@H](CCCNC(=N)N)C(=O)N[C@@H](CC(C)C)C(=O)N[C@@H](Cc1c[nH]cn1)C(=O)N[C@@H](C(C)C)C(=O)N[C@H](C(=O)O)CSSC[C@H](N)C(=O)N[C@@H]([C@@H](C)CC)C(=O)N[C@@H](CCC(=O)O)C(=O)N[C@@H](CCC(N)=O)C(=O)N[C@@H](CO)C(=O)N[C@@H](Cc1ccccc1)C(=O)N[C@@H]([C@@H](C)O)C(=O)N[C@@H]([C@@H](C)O)C(=O)N[C@@H](CC(C)C)C(=O)N[C@@H](Cc1ccccc1)C(=O)N[C@@H](C)C(=O)N2 | influenza A H1N1 CA09 | – | mouse BALB/c | – | baseline: FI6v3 over compound, higher = more potent | protective dose ratio | 100 fold |
| CC(=O)N[C@H]1[C@H]([C@H](O)[C@H](O)CO)OC(SCCCCCCS)(C(=O)O)C[C@@H]1NC(=N)N (stereo partly shown) | Influenza A virus | – | – | 0.5 h | – | IC50 | 1 to 10 µM |
| Cc1[nH]c(=O)c(CNC(=O)c2ccc([N+](=O)[O-])nc2)c2c1CCCC2 | Mycobacterium tuberculosis | microbial growth, resazurin | H37RV | – | – | MIC | 2.3 µg/mL (≈ 6.72 µM) |
| O=C(N/N=C1\C(=O)Nc2ccccc21)N/N=C1\C(=O)Nc2ccccc21 | Influenza A virus H3N2 | viral replication, visual CPE score | MDCK | – | – | EC50 | > 100 µM |
